Measurements pooled from the literature.
Protocols differ between the studies behind these lines. Values joined by “and” are separate records of one study, mostly repeats; a detail may differ. ± gives the spread as reported.

SMILES	test	test system	conditions	how to read	quantity	result
CC(C)[C@H](NC(=O)[C@H](Cc1c[nH]c2ccccc12)NC(=O)[C@H](CCCNC(=N)N)NC(=O)[C@H](CCCNC(=N)N)NC(=O)[C@@H](NC(=O)[C@@H](NC(=O)[C@H](CCCNC(=N)N)NC(=O)[C@@H](NC(=O)[C@@H](NC(=O)[C@H](CCCNC(=N)N)NC(=O)[C@H](CCCNC(=N)N)NC(=O)[C@@H](NC(=O)[C@H](Cc1c[nH]c2ccccc12)NC(=O)[C@H](CCCNC(=N)N)NC(=O)[C@H](CCCNC(=N)N)NC(=O)[C@@H](NC(=O)[C@H](CCCNC(=N)N)NC(=O)[C@H](CCCNC(=N)N)NC(=O)[C@@H](NC(=O)[C@H](Cc1c[nH]c2ccccc12)NC(=O)[C@H](CCCNC(=N)N)NC(=O)[C@@H](N)CCCNC(=N)N)C(C)C)C(C)C)C(C)C)C(C)C)C(C)C)C(C)C)C(C)C)C(=O)N[C@@H](CCCNC(=N)N)C(=O)N[C@@H](CCCNC(=N)N)C(=O)O	item: liver	mice	intravenous, 30 mg/kg	baseline: body weight	organ weight	4.93%
CSCC[C@H](N)C(=O)N[C@@H](C)C(=O)N[C@@H](Cc1c[nH]c2ccccc12)C(=O)N[C@@H](Cc1c[nH]cn1)C(=O)N[C@@H](CC(=O)O)C(=O)N[C@@H](CC(=O)O)C(=O)N[C@@H](CCC(=O)O)C(=O)N[C@@H](CCC(=O)O)C(=O)N[C@@H](Cc1ccccc1)C(=O)N[C@@H](C)C(=O)N[C@@H](CCCNC(=N)N)C(=O)N[C@@H](CCCNC(=N)N)C(=O)N[C@@H](CCCNC(=N)N)C(=O)N[C@@H](CCCNC(=N)N)C(=O)NCCCCCC(=O)NCCCCC(NC(=O)CCCCCNC(=O)[C@H](CCCNC(=N)N)NC(=O)[C@H](CCCNC(=N)N)NC(=O)[C@H](CCCNC(=N)N)NC(=O)[C@H](CCCNC(=N)N)NC(=O)[C@H](C)NC(=O)[C@H](Cc1ccccc1)NC(=O)[C@H](CCC(=O)O)NC(=O)[C@H](CCC(=O)O)NC(=O)[C@H](CC(=O)O)NC(=O)[C@H](CC(=O)O)NC(=O)[C@H](Cc1c[nH]cn1)NC(=O)[C@H](Cc1c[nH]c2ccccc12)NC(=O)[C@H](C)NC(=O)[C@@H](N)CCSC)C(=O)NCCCCC(NC(=O)C(CCCCNC(=O)CCCCCNC(=O)[C@H](CCCNC(=N)N)NC(=O)[C@H](CCCNC(=N)N)NC(=O)[C@H](CCCNC(=N)N)NC(=O)[C@H](CCCNC(=N)N)NC(=O)[C@H](C)NC(=O)[C@H](Cc1ccccc1)NC(=O)[C@H](CCC(=O)O)NC(=O)[C@H](CCC(=O)O)NC(=O)[C@H](CC(=O)O)NC(=O)[C@H](CC(=O)O)NC(=O)[C@H](Cc1c[nH]cn1)NC(=O)[C@H](Cc1c[nH]c2ccccc12)NC(=O)[C@H](C)NC(=O)[C@@H](N)CCSC)NC(=O)CCCCCNC(=O)[C@H](CCCNC(=N)N)NC(=O)[C@H](CCCNC(=N)N)NC(=O)[C@H](CCCNC(=N)N)NC(=O)[C@H](CCCNC(=N)N)NC(=O)[C@H](C)NC(=O)[C@H](Cc1ccccc1)NC(=O)[C@H](CCC(=O)O)NC(=O)[C@H](CCC(=O)O)NC(=O)[C@H](CC(=O)O)NC(=O)[C@H](CC(=O)O)NC(=O)[C@H](Cc1c[nH]cn1)NC(=O)[C@H](Cc1c[nH]c2ccccc12)NC(=O)[C@H](C)NC(=O)[C@@H](N)CCSC)C(N)=O (stereo partly drawn)		mouse C57BL/6 female, spine	3 h, radioiodinated peptide	baseline: total radioactivity	tissue distribution	7.37% and 6.12%
COc1cnc2cccc(N3CCc4c(cc(Cn5ccnc5)cc4-c4cn(C)nc4C(F)(F)F)C3=O)c2c1		BALB/c nude mice, MV4-11 xenograft	intraperitoneal, 50 mg/kg, day 31		body weight	19.8 g and 20.2 g and 23.5 g and 24.5 g and 22.1 g
CSCC[C@@H]1NC(=O)[C@H](C(C)C)NC(=O)[C@H](CCCNC(=N)N)NC(=O)CNC(=O)[C@@H]2CCCN2C(=O)[C@@H](NC(=O)CNC(=O)[C@H](CO)NC(=O)CNC(=O)[C@H](CO)NC(=S)Nc2ccc(C[C@H]3CN(CC(=O)O)CCN(CC(=O)O)CCN3CC(=O)O)cc2)CSSC[C@@H](C(N)=O)NC(=O)[C@@H]2CCCN2C(=O)CNC(=O)[C@H](CCC(=O)O)NC(=O)[C@H](CC(=O)O)NC(=O)[C@H](CC(=O)O)NC(=O)CNC(=O)[C@H](CC(C)C)NC(=O)[C@H](Cc2c[nH]cn2)NC(=O)[C@H](CC(C)C)NC(=O)CNC(=O)[C@H](Cc2c[nH]cn2)NC1=O [copper-64 labelled]	dynamic PET	CD rat, myocardial infarction model, fibrotic infarct myocardium	intravenous, 18.5 MBq, 0 to 5 min		half-life	2.6 ± 0.2 min
CC[C@H](C)[C@H](NC(=O)[C@H](CCCCN)NC(=O)CNC(=O)[C@H](CC(C)C)NC(=O)[C@H](Cc1ccccc1)NC(=O)[C@H](CCCCN)NC(=O)[C@H](CO)NC(=O)[C@H](Cc1ccccc1)NC(=O)[C@H](Cc1c[nH]c2ccccc12)NC(=O)[C@H](CCC(N)=O)NC(=O)[C@@H](NC(=O)[C@H](Cc1ccccc1)NC(=O)CCCCCNC(=O)CN1CCN(CC(=O)O)CCN(CC(=O)O)CCN(CC(=O)O)CC1)C(C)C)C(=O)N[C@@H](CCC(=O)O)C(=O)N1CCC[C@H]1C(=O)N[C@@H](CC(=O)O)C(=O)N[C@H](C(=O)N[C@@H](CO)C(=O)N[C@@H](CCC(N)=O)C(=O)N[C@H](C(=O)N[C@@H](CCC(N)=O)C(=O)N[C@@H](CC(=O)O)C(=O)N1CCC[C@H]1C(=O)N[C@@H](CC(N)=O)C(=O)N[C@@H](CC(=O)O)C(=O)N[C@@H](CCC(N)=O)C(=O)N[C@@H](Cc1ccc(O)cc1)C(=O)N[C@@H](CCC(=O)O)C(=O)N1CCC[C@H]1C(=O)N[C@@H](Cc1ccccc1)C(=O)O)C(C)C)C(C)C [copper-64 labelled]	dynamic PET	mouse both sexes, CT26 tumour, untreated, tumour	intravenous, 100 µCi/mouse, 1110 s		SUVmean	0.7 SUV
C#Cc1c(F)ccc2cc(O)cc(-c3ncc4c(N5CC6CCC(C5)N6C(=O)OC(C)OC(=O)CC)nc(OC[C@@]56CCCN5C[C@H](F)C6)nc4c3F)c12 (stereo partly drawn)	chemical stability	simulated intestinal fluid	1 µM, 30 min		compound remaining	96.4%
CC(C)[C@@H]1NC(=O)CNC(=O)[C@H](CC(N)=O)NC(=O)[C@H](CCCNC(=N)N)NC(=O)[C@H](Cc2ccc(O)cc2)NC(=O)[C@H](C(C)C)NC(=O)[C@@H](NC(=O)[C@@H](NC(=O)[C@H](CC(N)=O)NC(=O)[C@H](Cc2c[nH]c3ccccc23)NC(=O)[C@H](C)NC(=O)[C@H](Cc2ccccc2)NC(=O)CNC(=O)[C@H](CCCCN)NC(=O)[C@H](Cc2ccccc2)NC(=O)[C@H](Cc2ccccc2)NC(=O)[C@H](CCCCN)NC(=O)OCC2c3ccccc3-c3ccccc32)C(C)C)CSSC[C@@H](C(=O)N[C@@H](Cc2c[nH]cn2)C(=O)N[C@@H](CCCNC(=N)N)C(=O)N[C@@H](CCCNC(=N)N)C(=O)N[C@@H](C)C(=O)N[C@@H](CC(N)=O)C(N)=O)NC(=O)[C@H](C(C)C)NC(=O)[C@H](CCCNC(=N)N)NC1=O		ICR mouse, blood	intramammary, 5 mg/kg, day 5, 3 d dosing		haemoglobin	123 ± 6.13 g/L
O=C1NC2(CC2)COc2ncc(F)cc2[C@H]2COCCN2c2ccn3ncc1c3n2		Sprague-Dawley rat, male, heart	oral, 5 mg/kg/day, 4 weeks, end of treatment		organ-to-body weight ratio	0.367 ± 0.033%
NC1CCN(C(=O)Oc2ccc(C3CCCC4(C3)OOC3(O4)C4CC5CC(C4)CC3C5)cc2)CC1 (racemic)		male Sprague-Dawley rat, plasma	intravenous, 10 mg/kg		clearance	57.3 mL/min/kg
N#[11C]c1ccc(-c2csc(NN=C3CCCC3)n2)cc1		C57BL/6 mice, male, thymus	intravenous, 3 MBq, 30 min		radioactivity uptake	1.51 ± 0.53 %ID/g
C=Cc1c(C)c2cc3nc(c(CC(=O)[O-])c4[n-]c(cc5nc(cc1[n-]2)C(C)=C5CC)c(C)c4C(=O)[O-])C(CCC(=O)[O-])C3C.[Cu+2].[Na+].[Na+].[Na+] (stereo not drawn)		Wistar rat, male	oral, 500 mg/kg daily, 28 days		blood urea nitrogen	18.3 ± 2.5 mg/dL
CC(C)C[C@@H](NC(=O)[C@@H](CCCNC(=N)N)NC(=O)[C@@H](Cc1c[nH]cn1)NC(=O)[C@@H](Cc1c[nH]c2ccccc12)NC(=O)[C@@H](Cc1c[nH]cn1)NC(=O)[C@@H](Cc1ccccc1)NC(=O)[C@H](NC(=O)[C@@H](Cc1ccc(O)cc1)NC(=O)CNC(=O)CNC(=O)CCOCCOCCOCCNC(=O)CN1CCN(CC(=O)O)CCN(CC(=O)O)CC1)[C@H](C)O)C(=O)N[C@H](CC(N)=O)C(=O)N1CCC[C@@H]1C(=O)O [gallium-68 labelled]		human male, from C57BL/6 mouse, total body			absorbed dose	0.00982 mSv/MBq
CC(=O)NCCCC[C@@H]1NC(=O)[C@H](Cc2c[nH]c3c(C)cccc23)NC(=O)[C@H]([C@@H](C)O)NC(=O)[C@H](CC(N)=O)NC(=O)[C@@H](NC(C)=O)C(C)(C)SSC(C)(C)[C@@H](C(=O)N[C@@H](Cc2ccc(OCCN)cc2)C(=O)N[C@@H](Cc2ccc3ccccc3c2)C(=O)NC2(C(=O)N[C@@H](CCC(=O)O)C(=O)N[C@@H](CC(N)=O)C(=O)N[C@@H](Cc3cccnc3)C(=O)N(C)CC(N)=O)CCOCC2)NC1=O	equilibrium dialysis	rat, plasma	0.1 µM		plasma protein binding	47.9 ± 3.2%
Cc1ccccc1-c1ccc(-c2nc(-c3ccc(CN(C)CCCC(=O)O)c([18F])c3)no2)cc1C(F)(F)F		rat, liver	5 min		tracer uptake	3.65 %ID/g
CCOP(=O)(CNC(=O)CN1CCN(CC(=O)NCP(=O)(OCC)OCC)CCN(CC(=O)NCP(=O)(OCC)OCC)CCN(CC(=O)NCP(=O)(OCC)OCC)CC1)OCC.[177Lu+3]		Sprague-Dawley rat, bone	intravenous, dose not given, 2 h		biodistribution	0.998 ± 0.359 % injected dose/organ
CSCC[C@H](NC(=O)CNC(=O)[C@H](CCCCN)NC(=O)[C@H](CC(C)C)NC(=O)[C@@H]1CCCN1C(=O)[C@H](CO)NC(=O)[C@H](Cc1c[nH]cn1)NC(=O)[C@H](Cc1c[nH]c2ccccc12)NC(=O)[C@H](CCCNC(=N)N)NC(=O)[C@H](CC(C)C)NC(=O)[C@H](CCCNC(=N)N)NC(=O)[C@H](Cc1c[nH]c2ccccc12)NC(=O)[C@H](CS)NC(=O)CCCCCNC(=O)CN1CCN(CC(=O)O)CCN(CC(=O)O)CCN(CC(=O)O)CC1)C(=O)O [copper-64 labelled]		C57BL/6J mice, B16-F10 tumour, brain	intravenous, 1.85 MBq, 30 h		tissue uptake	0.29 %ID/g
CCN(CC)CCOc1ccc(-c2nnn(Cc3ccc(OC)cc3)c2N)cc1		rat plasma	120 min		remaining compound	101%
COc1ccc([C@@H]2CC(=O)c3c(O)cc(O[C@@H]4O[C@H](CO)[C@@H](O)[C@H](O)[C@H]4O[C@@H]4O[C@@H](C)[C@H](O)[C@@H](O)[C@H]4O)cc3O2)cc1O		male Sprague-Dawley rats, lean, faeces	oral, 100 mg/kg, 48 h	baseline: oral dose	faecal recovery	0.143 ± 0.02%

Excerpt of the above:
SMILES	test	test system	conditions	how to read	quantity	result
COc1cnc2cccc(N3CCc4c(cc(Cn5ccnc5)cc4-c4cn(C)nc4C(F)(F)F)C3=O)c2c1		BALB/c nude mice, MV4-11 xenograft	intraperitoneal, 50 mg/kg, day 31		body weight	19.8 g and 20.2 g and 23.5 g and 24.5 g and 22.1 g
CSCC[C@@H]1NC(=O)[C@H](C(C)C)NC(=O)[C@H](CCCNC(=N)N)NC(=O)CNC(=O)[C@@H]2CCCN2C(=O)[C@@H](NC(=O)CNC(=O)[C@H](CO)NC(=O)CNC(=O)[C@H](CO)NC(=S)Nc2ccc(C[C@H]3CN(CC(=O)O)CCN(CC(=O)O)CCN3CC(=O)O)cc2)CSSC[C@@H](C(N)=O)NC(=O)[C@@H]2CCCN2C(=O)CNC(=O)[C@H](CCC(=O)O)NC(=O)[C@H](CC(=O)O)NC(=O)[C@H](CC(=O)O)NC(=O)CNC(=O)[C@H](CC(C)C)NC(=O)[C@H](Cc2c[nH]cn2)NC(=O)[C@H](CC(C)C)NC(=O)CNC(=O)[C@H](Cc2c[nH]cn2)NC1=O [copper-64 labelled]	dynamic PET	CD rat, myocardial infarction model, fibrotic infarct myocardium	intravenous, 18.5 MBq, 0 to 5 min		half-life	2.6 ± 0.2 min
CC[C@H](C)[C@H](NC(=O)[C@H](CCCCN)NC(=O)CNC(=O)[C@H](CC(C)C)NC(=O)[C@H](Cc1ccccc1)NC(=O)[C@H](CCCCN)NC(=O)[C@H](CO)NC(=O)[C@H](Cc1ccccc1)NC(=O)[C@H](Cc1c[nH]c2ccccc12)NC(=O)[C@H](CCC(N)=O)NC(=O)[C@@H](NC(=O)[C@H](Cc1ccccc1)NC(=O)CCCCCNC(=O)CN1CCN(CC(=O)O)CCN(CC(=O)O)CCN(CC(=O)O)CC1)C(C)C)C(=O)N[C@@H](CCC(=O)O)C(=O)N1CCC[C@H]1C(=O)N[C@@H](CC(=O)O)C(=O)N[C@H](C(=O)N[C@@H](CO)C(=O)N[C@@H](CCC(N)=O)C(=O)N[C@H](C(=O)N[C@@H](CCC(N)=O)C(=O)N[C@@H](CC(=O)O)C(=O)N1CCC[C@H]1C(=O)N[C@@H](CC(N)=O)C(=O)N[C@@H](CC(=O)O)C(=O)N[C@@H](CCC(N)=O)C(=O)N[C@@H](Cc1ccc(O)cc1)C(=O)N[C@@H](CCC(=O)O)C(=O)N1CCC[C@H]1C(=O)N[C@@H](Cc1ccccc1)C(=O)O)C(C)C)C(C)C [copper-64 labelled]	dynamic PET	mouse both sexes, CT26 tumour, untreated, tumour	intravenous, 100 µCi/mouse, 1110 s		SUVmean	0.7 SUV
